Assay results of several laboratories.
Parts stem from different laboratories: compare values within a part only. Several values in a cell are separate wells, animals, samples, runs or records.
Chain of UniProt P21709 (whole entry, looked up): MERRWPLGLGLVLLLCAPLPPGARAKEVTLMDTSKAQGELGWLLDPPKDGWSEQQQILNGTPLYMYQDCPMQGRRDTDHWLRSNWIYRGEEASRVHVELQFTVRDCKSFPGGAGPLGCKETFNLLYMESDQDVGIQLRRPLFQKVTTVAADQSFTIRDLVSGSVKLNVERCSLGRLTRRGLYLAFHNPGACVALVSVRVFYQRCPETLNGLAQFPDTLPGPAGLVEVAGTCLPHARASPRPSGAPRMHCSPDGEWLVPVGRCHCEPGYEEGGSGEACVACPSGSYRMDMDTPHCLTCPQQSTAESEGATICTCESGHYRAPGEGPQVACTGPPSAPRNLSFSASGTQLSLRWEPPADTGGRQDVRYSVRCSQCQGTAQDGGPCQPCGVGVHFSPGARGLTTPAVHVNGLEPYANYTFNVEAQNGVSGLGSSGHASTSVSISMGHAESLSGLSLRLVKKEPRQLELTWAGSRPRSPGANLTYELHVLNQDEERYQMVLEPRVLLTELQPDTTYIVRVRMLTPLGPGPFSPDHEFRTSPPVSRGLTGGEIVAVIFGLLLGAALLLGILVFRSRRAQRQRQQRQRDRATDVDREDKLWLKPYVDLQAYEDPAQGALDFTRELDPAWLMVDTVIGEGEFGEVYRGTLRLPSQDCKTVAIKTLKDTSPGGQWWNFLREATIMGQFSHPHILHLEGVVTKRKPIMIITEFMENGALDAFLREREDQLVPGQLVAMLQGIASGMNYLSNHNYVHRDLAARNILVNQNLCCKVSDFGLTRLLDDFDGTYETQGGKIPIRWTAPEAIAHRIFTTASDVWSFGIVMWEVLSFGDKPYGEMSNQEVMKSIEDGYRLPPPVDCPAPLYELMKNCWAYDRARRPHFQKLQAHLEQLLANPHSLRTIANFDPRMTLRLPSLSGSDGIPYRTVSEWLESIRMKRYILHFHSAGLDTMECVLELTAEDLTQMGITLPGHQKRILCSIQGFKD
Chain of UniProt Q8N568 (whole entry, looked up): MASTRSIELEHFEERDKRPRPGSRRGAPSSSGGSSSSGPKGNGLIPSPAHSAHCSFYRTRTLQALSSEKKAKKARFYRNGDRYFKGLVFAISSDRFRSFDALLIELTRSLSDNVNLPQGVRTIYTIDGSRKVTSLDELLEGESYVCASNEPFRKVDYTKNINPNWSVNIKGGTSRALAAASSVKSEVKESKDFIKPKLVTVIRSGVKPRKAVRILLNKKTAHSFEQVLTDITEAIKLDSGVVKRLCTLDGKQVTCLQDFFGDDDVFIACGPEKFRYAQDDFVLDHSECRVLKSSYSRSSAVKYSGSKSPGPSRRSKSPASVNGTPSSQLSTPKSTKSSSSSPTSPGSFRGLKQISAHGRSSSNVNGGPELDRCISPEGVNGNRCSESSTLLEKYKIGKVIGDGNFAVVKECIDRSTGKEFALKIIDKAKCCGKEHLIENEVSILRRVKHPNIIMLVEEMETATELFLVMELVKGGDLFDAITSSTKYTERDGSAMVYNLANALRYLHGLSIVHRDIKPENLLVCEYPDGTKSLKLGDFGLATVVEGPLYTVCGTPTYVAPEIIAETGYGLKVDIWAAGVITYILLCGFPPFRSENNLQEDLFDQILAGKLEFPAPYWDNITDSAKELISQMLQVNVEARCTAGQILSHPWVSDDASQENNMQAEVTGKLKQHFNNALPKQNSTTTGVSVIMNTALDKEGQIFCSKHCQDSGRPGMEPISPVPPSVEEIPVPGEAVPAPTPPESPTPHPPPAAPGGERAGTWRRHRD
Chain of UniProt Q9UQ88 (whole entry, looked up): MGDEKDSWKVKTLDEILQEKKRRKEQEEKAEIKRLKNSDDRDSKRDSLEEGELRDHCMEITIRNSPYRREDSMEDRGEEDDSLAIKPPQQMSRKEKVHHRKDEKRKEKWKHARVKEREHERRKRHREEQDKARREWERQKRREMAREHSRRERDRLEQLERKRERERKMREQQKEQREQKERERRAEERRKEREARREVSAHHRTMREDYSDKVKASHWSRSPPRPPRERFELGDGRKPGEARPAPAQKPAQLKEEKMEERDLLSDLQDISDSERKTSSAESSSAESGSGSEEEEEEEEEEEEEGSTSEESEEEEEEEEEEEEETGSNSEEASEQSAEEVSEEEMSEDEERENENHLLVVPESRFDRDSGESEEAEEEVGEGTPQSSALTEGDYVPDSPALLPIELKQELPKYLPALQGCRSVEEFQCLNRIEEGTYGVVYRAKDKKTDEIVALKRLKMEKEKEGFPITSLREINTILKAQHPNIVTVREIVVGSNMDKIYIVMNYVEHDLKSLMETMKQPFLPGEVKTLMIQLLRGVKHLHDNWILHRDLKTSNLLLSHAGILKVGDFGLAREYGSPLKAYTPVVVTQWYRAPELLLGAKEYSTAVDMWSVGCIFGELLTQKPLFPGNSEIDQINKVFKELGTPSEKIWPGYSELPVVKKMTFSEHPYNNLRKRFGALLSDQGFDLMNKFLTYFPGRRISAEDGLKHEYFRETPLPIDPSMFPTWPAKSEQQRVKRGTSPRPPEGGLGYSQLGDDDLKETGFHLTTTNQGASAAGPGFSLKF
Chain of UniProt O43293 (whole entry, looked up): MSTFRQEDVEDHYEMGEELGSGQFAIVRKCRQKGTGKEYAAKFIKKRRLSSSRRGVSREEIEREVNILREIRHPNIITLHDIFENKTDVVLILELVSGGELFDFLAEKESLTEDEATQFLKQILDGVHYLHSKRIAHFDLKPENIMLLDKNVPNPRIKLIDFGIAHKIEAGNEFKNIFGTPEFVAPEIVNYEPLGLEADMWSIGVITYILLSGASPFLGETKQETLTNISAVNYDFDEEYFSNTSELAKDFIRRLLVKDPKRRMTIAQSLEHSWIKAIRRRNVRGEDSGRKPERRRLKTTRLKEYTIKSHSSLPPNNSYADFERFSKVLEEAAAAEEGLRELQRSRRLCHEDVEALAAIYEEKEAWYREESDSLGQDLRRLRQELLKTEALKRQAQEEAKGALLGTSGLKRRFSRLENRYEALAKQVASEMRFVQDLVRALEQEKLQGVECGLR
Chain of UniProt Q96RR4 (whole entry, looked up): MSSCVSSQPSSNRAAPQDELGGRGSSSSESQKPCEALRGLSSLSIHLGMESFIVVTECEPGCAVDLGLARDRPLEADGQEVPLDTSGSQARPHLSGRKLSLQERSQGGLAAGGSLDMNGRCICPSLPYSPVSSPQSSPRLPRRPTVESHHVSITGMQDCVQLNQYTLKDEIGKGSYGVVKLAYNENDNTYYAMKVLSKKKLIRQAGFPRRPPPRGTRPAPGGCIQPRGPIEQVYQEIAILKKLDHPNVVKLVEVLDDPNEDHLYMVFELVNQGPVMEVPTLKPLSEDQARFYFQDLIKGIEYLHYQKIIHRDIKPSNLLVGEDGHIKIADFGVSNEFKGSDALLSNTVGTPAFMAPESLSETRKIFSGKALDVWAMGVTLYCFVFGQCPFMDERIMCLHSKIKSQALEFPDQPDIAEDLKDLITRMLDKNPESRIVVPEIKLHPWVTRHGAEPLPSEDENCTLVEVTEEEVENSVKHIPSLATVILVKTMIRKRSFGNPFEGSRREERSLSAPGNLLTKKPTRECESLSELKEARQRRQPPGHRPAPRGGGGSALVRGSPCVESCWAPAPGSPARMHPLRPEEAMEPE
Chain of UniProt Q14164 (whole entry, looked up): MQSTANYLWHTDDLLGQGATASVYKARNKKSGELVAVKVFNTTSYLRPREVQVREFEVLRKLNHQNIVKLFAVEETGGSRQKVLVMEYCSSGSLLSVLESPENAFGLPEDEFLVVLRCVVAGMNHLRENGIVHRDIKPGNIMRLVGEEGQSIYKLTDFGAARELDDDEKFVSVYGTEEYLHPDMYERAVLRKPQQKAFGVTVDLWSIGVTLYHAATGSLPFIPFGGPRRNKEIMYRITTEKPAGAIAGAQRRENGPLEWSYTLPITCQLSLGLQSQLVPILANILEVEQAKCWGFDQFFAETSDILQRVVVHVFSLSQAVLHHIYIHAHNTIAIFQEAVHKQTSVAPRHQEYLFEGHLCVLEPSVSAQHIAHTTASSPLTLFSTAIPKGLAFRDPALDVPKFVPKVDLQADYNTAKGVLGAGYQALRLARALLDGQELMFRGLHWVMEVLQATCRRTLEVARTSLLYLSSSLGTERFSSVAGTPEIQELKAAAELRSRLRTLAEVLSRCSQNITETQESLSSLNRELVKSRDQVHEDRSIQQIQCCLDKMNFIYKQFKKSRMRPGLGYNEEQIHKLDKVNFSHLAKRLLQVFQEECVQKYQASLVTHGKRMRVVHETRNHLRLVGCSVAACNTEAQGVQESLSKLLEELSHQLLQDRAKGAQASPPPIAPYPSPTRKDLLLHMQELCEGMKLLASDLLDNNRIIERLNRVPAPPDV

Set 1
Structure (SMILES): CC(C)(C)c1cnc(CSc2cnc(NC(=O)C3CCNCC3)s2)o1
Species: nude mouse, HH xenograft
Dose: dose not given
Quantity: tumour volume
day 6: 46.4 mm³ and 23.4 mm³ and 53.2 mm³ and 18 mm³ and 45.6 mm³ and 57.6 mm³ and 142 mm³ and 27.2 mm³
day 13: 117 mm³ and 104 mm³ and 115 mm³ and 31.2 mm³ and 34.2 mm³ and 11 mm³ and 181 mm³ and 27.2 mm³
day 17: 123 mm³ and 259 mm³ and 240 mm³ and 20.2 mm³ and 27.6 mm³ and 48.7 mm³ and 36 mm³ and 171 mm³
day 11: 28.2 mm³ and 0 mm³ and 67.9 mm³ and 55.3 mm³ and 22.6 mm³ and 30.6 mm³ and 110 mm³ and 5.32 mm³

Set 2
Compound: COc1ccc2c(O[C@@H]3C[C@H]4C(=O)N[C@]5(C(=O)O)CC5/C=C\CCCCC[C@H](NC(=O)OC5CCCC5)C(=O)N4C3)cc(-c3csc(NC(=O)C(C)C)n3)nc2c1C (stereo partly shown)
Technique: competition with immobilised ligand
Concentration: 1 µM
Quantity: remaining binding
CAMKK2 (Homo sapiens, UniProt Q96RR4); cell-free assay: 100%
PDGFRB (Homo sapiens, UniProt P09619); cell-free assay: 94%
CSNK1E (Homo sapiens, UniProt P49674); cell-free assay: 100%
IRAK3 (Homo sapiens, UniProt Q9Y616); cell-free assay: 97%
STK39 (Homo sapiens, UniProt Q9UEW8); cell-free assay: 100%
IKBKE (Homo sapiens, UniProt Q14164); cell-free assay: 82%
MKNK1 (Homo sapiens, UniProt Q9BUB5); cell-free assay: 79%
INSRR (Homo sapiens, UniProt P14616); cell-free assay: 95%
KIT (Homo sapiens, UniProt P10721, D816H); cell-free assay: 86%
EPHA1 (Homo sapiens, UniProt P21709); cell-free assay: 88%
FLT1 (Homo sapiens, UniProt P17948); cell-free assay: 95%
DCLK2 (Homo sapiens, UniProt Q8N568); cell-free assay: 95%
DAPK3 (Homo sapiens, UniProt O43293); cell-free assay: 100%
CDK11A (Homo sapiens, UniProt Q9UQ88); binding: 99%
Aurora kinase A (AURKA, Homo sapiens, UniProt O14965); cell-free assay: 69%

Set 3
Target: Calcium/calmodulin-dependent protein kinase type II subunit alpha (CAMK2A, Homo sapiens, UniProt Q9UQM7)
Chain of UniProt Q9UQM7 (whole entry, looked up): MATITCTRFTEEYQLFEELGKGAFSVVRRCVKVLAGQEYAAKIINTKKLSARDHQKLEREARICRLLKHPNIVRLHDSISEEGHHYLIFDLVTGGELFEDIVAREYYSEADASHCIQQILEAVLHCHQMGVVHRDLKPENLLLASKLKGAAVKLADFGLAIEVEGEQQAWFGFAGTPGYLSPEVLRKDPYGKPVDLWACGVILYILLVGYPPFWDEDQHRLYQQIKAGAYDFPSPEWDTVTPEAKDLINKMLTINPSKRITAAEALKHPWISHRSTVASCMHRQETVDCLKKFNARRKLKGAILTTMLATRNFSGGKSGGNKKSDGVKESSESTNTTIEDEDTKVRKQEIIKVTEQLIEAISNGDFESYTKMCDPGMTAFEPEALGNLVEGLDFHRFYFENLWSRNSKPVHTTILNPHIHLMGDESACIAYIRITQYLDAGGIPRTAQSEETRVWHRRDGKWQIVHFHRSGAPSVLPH
Read-out: enzyme activity
Action: inhibitor
Concentration: 10 µM
Quantity: inhibition
O=C(N=c1c(Cl)cn(O)cc1Cl)c1ccc(OC(F)F)c(OCC2CC2)c1: 12%
CNc1nc2c(ncn2[C@@H]2O[C@H](CO)[C@@H](O)[C@H]2O)c(=O)[nH]1: -10%
CCCCCCC(O)C(=O)O (stereo not shown): 12%
Cc1nc2ccccc2o1: -33%
CCOC(=O)C1=C(COCCN)NC(C)=C(C(=O)OC)[C@@H]1c1ccccc1Cl: -2%
OC[C@H]1O[C@@](CO)(O[C@H]2O[C@H](CO)[C@@H](O)[C@H](O)[C@H]2O)[C@@H](O[C@H]2O[C@H](CO)[C@@H](O)[C@H](O)[C@H]2O)[C@@H]1O: -10%
C[C@@H]1O[C@@H](OC[C@H]2O[C@@H](OCCc3ccc(O)c(O)c3)[C@H](O)[C@@H](O)[C@@H]2O)[C@H](O)[C@H](O)[C@H]1O: -17%

Set 4
Cell line: HaCaT
Concentration: 100 µM
Time: 18 h
Quantity: viability
O=P(O)(O)C(O)(Cn1ccnc1)P(=O)(O)O: 111%
O=c1[nH]cc(F)c(=O)[nH]1: 89.7%
COCCCC/C(=N\OCCN)c1ccc(C(F)(F)F)cc1: 39.5%
CCN(CC)CCNC(=O)c1c(C)[nH]c(/C=C2\C(=O)Nc3ccc(F)cc32)c1C: 50.9% and 24.6%
CCCCCCCC(=O)N[C@H](CN1CCCC1)[C@H](O)c1ccc2c(c1)OCCO2: 91.8%
O=c1ccc2cc3ccoc3cc2o1: 98.3%
N#Cc1ccc2[nH]cc(CCCCN3CCN(c4ccc5oc(C(N)=O)cc5c4)CC3)c2c1: 18.9%
CC(C(=O)O)c1ccc2c(c1)Cc1cccnc1O2 (stereo not shown): 98.6%

A few entries again (set 2):
DCLK2 (Homo sapiens, UniProt Q8N568); cell-free assay: 95%
DAPK3 (Homo sapiens, UniProt O43293); cell-free assay: 100%
CDK11A (Homo sapiens, UniProt Q9UQ88); binding: 99%
Aurora kinase A (AURKA, Homo sapiens, UniProt O14965); cell-free assay: 69%
